Published values of several laboratories.
Each line is one published result; not all experiments were run side by side.

| SMILES | test | test system | conditions | scale | Cmax |
| --- | --- | --- | --- | --- | --- |
| O=C(O)CCC(=O)O.[2H]C([2H])([2H])Oc1cc(C)c2[nH]ccc2c1CN1CC[C@@H](C2CC2)C[C@H]1c1ccc(C(=O)O)cc1 |  | human, plasma | 200 mg once daily, day 1, multiple ascending dose, geometric mean |  | 2570 ng/mL |
| C=CCn1c(=O)c2cnc(Nc3ccc(N4CCN(C)CC4)cc3)nc2n1-c1cccc(C(C)(C)O)n1 |  | human | oral, 175 mg twice daily, monotherapy lead-in, -5 days | geometric mean | 1040 nM |
| CNC(=O)c1ccc(-c2cnc3ncc(Cc4ccc5ncccc5c4)n3n2)cc1F |  | human moderate hepatic impairment NCI | oral, 200 mg single dose, mean |  | 2120 ng/mL |
| C=CC(=O)N(C)CCOc1c(N)ncnc1-c1cc(F)cc(NC(=O)c2ccc(C3CC3)cc2F)c1C |  | human | oral, 60 mg single dose |  | 138 ng/mL |
| COc1cc(N2CCC(N3CCN(C)CC3)CC2)ccc1Nc1ncnc(Nc2ccccc2S(=O)(=O)C(C)C)n1 |  | human, plasma | oral, 125 mg, day 28 |  | 643 ng/mL |
| C[C@@H](Nc1cc(F)cc(F)c1)c1cc(C(=O)N(C)C)cc2c(=O)cc(N3CCOCC3)oc12 |  | human, pooled cohorts, plasma | oral, 120 mg twice daily, geometric least-squares mean, with: abiraterone 1000 mg |  | 982 ng/mL |
| COc1ncc(-c2nc3c(n2C(C)C)[C@H](c2ccc(Cl)cc2)N(c2cc(Cl)cn(C)c2=O)C3=O)c(OC)n1 | LC-MS/MS | human, plasma | oral, 350 mg, cycle 2 day 1, high-dose arm |  | 2600 ng/mL |
| CCOc1c([C@H](C)n2nc(C)c3c(N)ncnc32)cc(Cl)c(F)c1[C@@H]1CNC(=O)C1 |  | human, indolent lymphoma, plasma | oral, 20 mg, day 15 |  | 1600 nM |
| CO[C@H]1C[C@@H]2CC[C@@H](C)[C@@](O)(O2)C(=O)C(=O)N2CCCC[C@H]2C(=O)O[C@H]([C@H](C)C[C@@H]2CC[C@@H](OC(=O)NCCOCCOCCOCCOCCOCCOCCOCCOCCC(=O)N3CCc4cc(Cn5nc(-c6ccc7oc(N)nc7c6)c6c(N)ncnc65)ccc4C3)[C@H](OC)C2)C[C@@H](O)[C@H](C)/C=C(\C)[C@@H](O)[C@@H](OC)C(=O)[C@H](C)C[C@H](C)/C=C/C=C/C=C/1C |  | human, plasma | intravenous, 16 mg, cycle 1 day 1, arithmetic mean |  | 657 ng/mL |
| O=C(COc1ccc(Cl)cc1)NC12CC(c3nnc([C@H]4C[C@@H](OC(F)(F)F)C4)o3)(C1)C2 |  | healthy human subjects, plasma | oral, 100 mg, single ascending dose, fasted |  | 1230 nM |

For quick reference, copied from above:
| SMILES | test | test system | conditions | scale | Cmax |
| --- | --- | --- | --- | --- | --- |
| CCOc1c([C@H](C)n2nc(C)c3c(N)ncnc32)cc(Cl)c(F)c1[C@@H]1CNC(=O)C1 |  | human, indolent lymphoma, plasma | oral, 20 mg, day 15 |  | 1600 nM |
| CO[C@H]1C[C@@H]2CC[C@@H](C)[C@@](O)(O2)C(=O)C(=O)N2CCCC[C@H]2C(=O)O[C@H]([C@H](C)C[C@@H]2CC[C@@H](OC(=O)NCCOCCOCCOCCOCCOCCOCCOCCOCCC(=O)N3CCc4cc(Cn5nc(-c6ccc7oc(N)nc7c6)c6c(N)ncnc65)ccc4C3)[C@H](OC)C2)C[C@@H](O)[C@H](C)/C=C(\C)[C@@H](O)[C@@H](OC)C(=O)[C@H](C)C[C@H](C)/C=C/C=C/C=C/1C |  | human, plasma | intravenous, 16 mg, cycle 1 day 1, arithmetic mean |  | 657 ng/mL |
